Results pooled from the literature.
Parts stem from different laboratories: compare values within a part only.

Set 1 — technique: universal PBM; molecule type: double-stranded DNA, one strand shown; sample: in vitro; tested at: not given; reading: higher = stronger binding
Target: Sal-like protein 4, full length isoform B (SALL4, Homo sapiens, UniProt Q9UJQ4-2, residues 1-616)
Notes: 8-mer, flanks averaged, mean of replicates
Oligonucleotide | E-score
AGGCTCGA | -0.08
ACGACCTA | -0.0245
CCGCTATC | -0.128
CTTGTACA | 0.138
AACCGGAT | -0.013

Set 2 — technique: RNA Bind-n-Seq; molecule type: RNA; sample: in vitro; tested at: 365 nM; baseline: no-protein control; reading: higher = stronger binding
Target: RNA binding protein fox-1 homolog 2, RRM domain, GST-SBP tag (RBFOX2, Homo sapiens, UniProt O43251-10, residues 100-194)
Notes: natural RNA segment, single round, ends assumed
Construct (chain): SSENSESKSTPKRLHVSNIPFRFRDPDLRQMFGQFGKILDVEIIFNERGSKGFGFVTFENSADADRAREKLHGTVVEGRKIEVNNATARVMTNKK
Oligonucleotide | RBNS enrichment (R)
GGGAGUUCUACAGUCCGACGAUCGACAAUGAGGGCCGCAUGAAGAUCUGGUGCUGCGCGGAUGCUGCCCUGGUGAUGCUGUGUGCUGGGGCAUCCACCAGUGACUCAUUUAAAGGGGCUUGGUCAGGGUUGCUUGGAAUUCUCGGGUGCCAA | 5.72
GGGAGUUCUACAGUCCGACGAUCUGGGUAUGAGGUGUGCAGGGGGCUGGGUGGCUUUCCUCAGCCCAUUACAAAGAGGGCCCCCCACCCCCCCCACGCGGCAGCCUGGGAGGCUCUGCUGUCCUCUUAAGCCUUGGAAUUCUCGGGUGCCAA | 0.216
GGGAGUUCUACAGUCCGACGAUCCCUUUUCUGGUUGUGGACAAGGCUGCCUUAGGACUUUGCUAACCCAAUAAAACCUUUAGAUUCUGGUGAAGCCAGAGCCUCUCCACAGUGGCUAAGGUUGUUGUUGAUCUUGGAAUUCUCGGGUGCCAA | 0.295
GGGAGUUCUACAGUCCGACGAUCCGACAGUGAAAAAGCUCUACUUCUACGCUGACCCAGGGAGGAAACACUAGGACCCUGUUGUAUCCUCAACUGCAAGUUUCUGGACUAGUCUCCCAACGUUUGCCUCCCAAUGGAAUUCUCGGGUGCCAA | 0.33

Set 3 — technique: protein binding microarray; molecule type: double-stranded DNA, one strand shown; sample: in vitro; tested at: not given; baseline: not given; reading: higher = stronger binding
Target: Histone acetyltransferase KAT6A, winged helix 2, GST fusion (KAT6A, Homo sapiens, UniProt Q92794, residues 85-181)
Notes: 8-mer, flanks averaged, mean of 2 arrays, mostly near background
Residues (chain): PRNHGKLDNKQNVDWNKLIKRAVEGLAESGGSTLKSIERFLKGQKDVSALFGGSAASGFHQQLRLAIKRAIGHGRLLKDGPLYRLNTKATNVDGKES
Oligonucleotide | E-score
ATTGCAAT | -0.124
CTCTTCGC | 0.0848
AGCGTCAT | -0.0464
GGGTCTAC | -0.0702
AGCGAAGA | 0.0122
AAATTGCT | 0.0311
GACACGTA | -0.16

Mixed results
Substance | target | test | test system | conditions | scale | quantity | value
PhoQ, residues 284 288 289 292 302 303 GNNTDL | PhoP, residues 12 14 15 18 19 NHFIF (Escherichia coli, UniProt P23836) | Sort-seq, refers to: YFP reporter | E. coli | PhoQ-PhoP variant library, together with: 10 µM Mg2+ | baseline: high Mg2+ state, higher = stronger signaling | fold induction | 1.15

For quick reference, copied from above (set 1):
Oligonucleotide | E-score
CCGCTATC | -0.128
ACGACCTA | -0.0245
